# Experimental data pooled from the literature.
# Lines come from different studies, so protocols differ.
# Cell line: Jurkat
SMILES,assay,conditions,how to read,endpoint,result
Cc1[nH][n+]([Pt-2]([Cl])([n+]2[nH]c(C)c(CSCc3ccccc3)c2C)[n+]2[nH]c(C)c(CSCc3ccccc3)c2C)c(C)c1CSCc1ccccc1.[Cl-],annexin V/7-AAD flow cytometry,1 µM,,apoptotic cells,23.6%
Cc1ccc(C(C)C)cc1.[Cl-].[Cl-].[Ru+2].c1ccc(P(=Nc2cccc3cccnc23)(c2ccccc2)c2ccccc2)cc1,flow cytometry,concentration not given,,cells with ΔΨm loss,40%
CCC(/C=C/C(=O)O)=C\C(=O)C[C@H](C)C[C@@H](C)CC[C@H](O)[C@H](C)C(=O)CC(O)[C@H](C)[C@@H](C)OC(=O)C[C@@H](O)C1=C(C)C(=O)OC1=O (stereo partly drawn),IL-2 production,"20 µM, 24 h, together with: anti-CD3/anti-CD28 antibodies",,inhibition,98%
Cc1ccc(C(C)C)cc1.O=C(N=P(c1ccccc1)(c1ccccc1)c1ccccc1)c1ccccn1.[Cl-].[Cl-].[Ru+2],MTT,,reference: IC50 RPTC over IC50 Jurkat,selectivity ratio,17.7 fold
CC(=O)N[C@@H](Cc1cccnc1)C(=O)N[C@@H](CC(=O)O)C(=O)N[C@@H](Cc1c(F)c(F)c(F)c(F)c1F)C(=O)N[C@@H](Cc1ccccc1)C(=O)N[C@@H](CC(=O)O)C(=O)COC(=O)c1ccc(C)s1,"cell death, apoptosis inhibitor, CellTiter-Glo viability","30 min pretreatment, up to, together with: MegaFasL 10 ng/mL",,highest concentration without protection,> 100 µM
C(=C/c1ccccc1)/c1ccccc1,"apoptosis, measured: caspase-3 activity","24 h, lowest dose with significant induction",reference: vehicle,lowest effective concentration,10 µM
O=C1c2cccc3cccc(c23)C12NC(Cc1ccc(O)cc1)C([N+](=O)[O-])C2c1ccccc1 (stereo not drawn),flow cytometry,"IC50, 24 h",,active caspase-3 positive cells,> 85%
C1=CCCC=CCC1.F[P-](F)(F)(F)(F)F.[Pt+][c]1ccccc1P(=Nc1ccccc1)(c1ccccc1)c1ccccc1,,"concentration not given, 24 h",,cells with decreased ΔΨm,80%
NCCCC[C@H](NC(=O)[C@H](CCCCN)NC(=O)[C@@H](N)CCCCN)C(=O)NCC(=O)NCC(=O)NCCCCCCCCNC(=O)COc1ccc(-c2ccccn2)cc1,confocal microscopy,"10 µM, 1 h, 4",,LysoTracker Red and ER-RFP emission,decreased
CC(C)C[C@@H](NC(=O)[C@@H](CC(C)C)NC(=O)[C@@H](CO)NC(=O)[C@@H](Cc1c[nH]cn1)NC(=O)[C@@H](CC(C)C)NC(=O)[C@@H](CO)NC(=O)[C@@H](CCCNC(=N)N)NC(=O)[C@@H](CO)NC(=O)[C@H](N)Cc1ccccc1)C(=O)NCC(=O)NCCCCCC(=O)N[C@H](CCCNC(=N)N)C(=O)N[C@H](CCCNC(=N)N)C(=O)N[C@H](CCCNC(=N)N)C(=O)N[C@H](CCCNC(=N)N)C(=O)N[C@H](CCCNC(=N)N)C(=O)N[C@H](CCCNC(=N)N)C(=O)N[C@H](CCCNC(=N)N)C(=O)N[C@H](CCCNC(=N)N)C(=O)NCC(=O)N[C@@H](CS)C(=O)O,propidium iodide uptake,"10 µM, 1 h, 37 °C",,dead cells,20 to 30%
O=C1c2cccc3cccc(c23)C12NC(Cc1ccc(O)cc1)C([N+](=O)[O-])C2c1ccc(Br)cc1 (stereo not drawn),"cell growth or viability, MTT",48 h,,IC50,33.1 µM
C=C/C(=C/CC[C@H](C)C[C@@H](C)CC[C@H](O)[C@H](C)C(=O)CC(O)[C@H](C)[C@@H](C)OC(=O)C[C@@H](O)C1=C(C)C(=O)OC1=O)CC (stereo partly drawn),IL-2 production,"20 µM, 24 h, together with: anti-CD3/anti-CD28 antibodies",,inhibition,98%

# For quick reference, copied from above:
SMILES,assay,conditions,how to read,endpoint,result
C(=C/c1ccccc1)/c1ccccc1,"apoptosis, measured: caspase-3 activity","24 h, lowest dose with significant induction",reference: vehicle,lowest effective concentration,10 µM
